Measurements collected from several papers.
Parts stem from different laboratories: compare values within a part only. Substitutions count along the parent as printed.

Block 1 — method: DHFR PCA, deep sequencing; sample: yeast; added: (+)-ABA 200 µM; reference: wild-type fitted maximum; reading: higher = stronger binding; quantity: relative binding score
Target: ABI1, truncated, D143A, DHFR fusion (Arabidopsis thaliana)
Notes: methotrexate growth selection, single substitutions
Parent: PYL1, truncated, DHFR fusion (Arabidopsis thaliana); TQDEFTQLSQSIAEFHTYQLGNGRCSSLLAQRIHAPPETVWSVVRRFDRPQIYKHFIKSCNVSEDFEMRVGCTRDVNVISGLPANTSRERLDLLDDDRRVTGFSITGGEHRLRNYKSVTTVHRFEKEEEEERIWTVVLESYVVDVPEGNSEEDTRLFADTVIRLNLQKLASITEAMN; partner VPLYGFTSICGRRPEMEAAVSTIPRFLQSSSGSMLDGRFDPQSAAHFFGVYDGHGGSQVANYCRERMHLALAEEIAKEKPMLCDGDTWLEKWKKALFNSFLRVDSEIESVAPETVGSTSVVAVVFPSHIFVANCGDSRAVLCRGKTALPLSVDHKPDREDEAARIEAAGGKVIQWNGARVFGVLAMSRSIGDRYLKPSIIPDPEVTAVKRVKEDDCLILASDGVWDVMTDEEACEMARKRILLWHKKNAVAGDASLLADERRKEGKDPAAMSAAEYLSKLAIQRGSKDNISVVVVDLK
R155W: 36.9%
Q167S: 99%
S140Y: 20.5%
E130Y: 95.3%
G107R: 68.8%
G71V: -6.2%
S9F: 85.6%
C60S: 79.3%
N177C: 101%
S9T: 92.2%
D144F: 24.4%
T73W: 96.2%
L93H: 99.3%
C25W: 25.3%
P36E: 93.5%
V118L: 84%
T17V: 84.2%
Y115W: 60.2%
F103A: 0.666%
R123Q: 108%
T119A: 44.7%
S171K: 101%
C25E: 23.9%

Block 2 — target: CCND1, cyclin fold, Cln2 fusion (human); method: yeast growth competition, sequencing; sample: yeast; notes: strong parent motif; reference: not given; reading: higher = stronger binding; quantity: normalised enrichment score
Parent: RBL2 docking peptide (human); STTRRRLFVENDS; partner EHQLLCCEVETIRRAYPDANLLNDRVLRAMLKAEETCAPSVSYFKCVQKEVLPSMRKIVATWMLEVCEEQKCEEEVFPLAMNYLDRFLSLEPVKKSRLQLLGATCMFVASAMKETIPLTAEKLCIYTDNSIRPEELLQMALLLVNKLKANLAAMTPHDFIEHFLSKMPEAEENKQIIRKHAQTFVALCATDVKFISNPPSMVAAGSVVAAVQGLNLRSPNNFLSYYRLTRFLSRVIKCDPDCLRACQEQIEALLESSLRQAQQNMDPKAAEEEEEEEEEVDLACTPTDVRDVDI
R4V: 1.04
T3W: 0.163
R5H: 0.471
R5K F8L: -0.084
D12A: 0.16
D12C: 0.171
S1L: 0.309
L7F: 0.16
T2H: 0.701
S13R: 0.749
R4C: 3.08
L7P: 0.706
F8I: 0.0555
S1W: -0.11
R4H: 1.08
T2R: 0.753
V9I: 0.791
F8N: 0.0295

Block 3 — method: protein binding microarray; form: double-stranded DNA, one strand shown; sample: in vitro; concentration: not given; reference: not given; reading: higher = stronger binding; quantity: E-score
Target: Histone acetyltransferase KAT6A, winged helix 2, GST fusion (KAT6A, Homo sapiens, UniProt Q92794, residues 85-181)
Notes: 8-mer, flanks averaged, mean of 2 arrays, mostly near background
Construct (chain): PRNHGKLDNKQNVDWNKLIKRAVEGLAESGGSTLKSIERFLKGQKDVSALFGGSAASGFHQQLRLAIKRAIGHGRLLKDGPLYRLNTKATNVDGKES
ACCTCTCT: -0.0739
ATTGTCTC: -0.091
ACTATGAC: -0.174
TCGGCACA: 0.0561
GATCAGAA: -0.0314
ACATAGCT: -0.0779
CGTCCTAC: -0.179
ACCGGGGC: 0.0664
CAGCTAGA: -0.0107
AGACCGAT: -0.159
CTAAGGTC: -0.228
CGCCTCAA: 0.107
AACTAATC: -0.00161
ACAGTGAT: -0.196
CGATGTTA: -0.013
CTTGCTTA: -0.0495
CCAGAGGC: -0.0305
TGCCGCCA: 0.156
ACATGGGA: -0.0104
AACCGGGT: 0.00936

Other studies, line by line
PhoQ, residues 284 288 289 292 302 303 AGGCYF  fold induction (PhoP, residues 12 14 15 18 19 NQGLL (Escherichia coli, UniProt P23836); Sort-seq, refers to: YFP reporter; E. coli; PhoQ-PhoP variant library, added: 10 µM Mg2+; reference: high Mg2+ state, higher = stronger signaling): 8.47
